Results of several laboratories.
Lines come from different studies, so protocols differ. Several values in a cell are separate wells, animals, samples, runs or records. Numbers after ± are the reported error.

`CO[C@H]1[C@H](O[C@H]([C@H]2O[C@@H](n3ccc(=O)[nH]c3=O)[C@H](O)[C@@H]2O)[C@H](NCCCNC(=O)[C@@H](NC(=O)[C@@H](NC(=O)N[C@H](C(=O)O)C(C)C)[C@@H]2CCNC(=N)N2)[C@@H](OC(=O)CCCCCCCCCCCCNC(=N)N)C(C)C)C(N)=O)O[C@H](CN)[C@H]1O` gave an MIC50 of > 35 mg/L (Candida albicans; alamar blue; 18 M).
`C[C@H](CS)C(=O)N[C@H](Cc1c[nH]c2ccccc12)C(=O)O`: “MIC of meropenem” 32 mg/L (Escherichia coli; IMP-1 producing; 10 µM, added: meropenem).
The ED50 of `Oc1cccc2c1OC1CCCC3CN(CC4CC4)CCC231` (single isomer, unassigned) is reported as 0.19 mg/kg (morphine antinociception, antagonist, tail-flick test; male ICR mice; subcutaneous, 10 min before morphine, tested 20 min after, water 55 °C, added: morphine 10 nmol i.c.v.).
For `O=S(=O)(O)c1ccc2cc(S(=O)(=O)O)ccc2c1`, “MIC fold reduction” read 16 fold (Escherichia coli; bacterial growth, inhibitor, broth microdilution; expressing OXA-48; 256 µg/mL, added: ampicillin; relative to: ampicillin alone).
Under head-twitch response, `CNC(C)C(=O)c1cccc(Br)c1` (racemic) is recorded as “no effect” (DOI-induced; FVB mouse; subcutaneous, 10 mg/kg, added: DOI 1 mg/kg; relative to: vehicle plus DOI).
For `CC(C)C(C(=O)N(Cc1ccc(C2CCCCC2)cc1)c1ccc(C(=O)O)cc1)N(C)S(=O)(=O)c1c(F)c(F)c(F)c(F)c1F` (stereo not shown), the IC50 was 3.7 ± 0.4 µM (Pa03C; cell growth, MTS; 72 h).
For `NC[C@@H](NC[C@@H]1CCCN1C[C@@H](CO)NC[C@@H](NCCc1ccc(-c2ccccc2)cc1)c1ccccc1)c1ccccc1`, “potentiation of amikacin” read 1.9 fold (Acinetobacter baumannii; bacterial growth; 8 µM, fold shift of IC90, added: amikacin).
`Cc1ccc(-c2csc(NP(=O)(O)OCC3OC(n4cnc5c(=O)[nH]c(NC(=O)c6ccccc6)nc54)C4OC(C)(C)OC34)n2)cc1` (stereo not shown) has an IC50 of > 100 µM (Caco-2; cell growth, SRB).
`NC[C@@H](NC[C@@H]1CCCN1C[C@@H](CO)NC[C@@H](NCCC1CC2CCC1C2)c1ccccc1)c1ccccc1` (stereo partly shown) — result for “potentiation of amikacin”: 1.4 fold (Acinetobacter baumannii; bacterial growth; 16 µM, fold shift of IC90, added: amikacin).
With `N#Cc1ccc2cc3c(=O)[nH]c(=O)nc-3n(-c3cccc(-c4nnn[nH]4)c3)c2c1` the GI50 was 24.3 µM (CCRF-CEM; cell growth, ATPlite; 72 h).
For `CC1CCCCCCCCCCCCC(=O)C1` (stereo not shown), binding affinity read “decreased” (Manis javanica OBP3 Y81A; concentration not given; relative to: wild type).
`NC[C@@H](NC[C@@H]1CCCN1C[C@@H](CO)NC[C@@H](NCCC12CC3CC(CC(C3)C1)C2)c1ccccc1)c1ccccc1` has an IC90 of 23.1 µM (Acinetobacter baumannii; bacterial growth; compound alone).
With `CCCCCCCCCCCCNC(=O)N[C@H](C(=O)N[C@H]1/C=C/CCNC(=O)/C=C/[C@H](C)NC1=O)C(C)C` the resistance index was 2 ± 0.1 (Mino bortezomib-resistant; cell viability; relative to: EC50 resistant over parental Mino).
`CC[C@H](C)[C@H](NC(=O)[C@H](C)NC(=O)[C@H](CCC(=O)O)NC(=O)[C@H](CCC(=O)O)NC(=O)[C@H](CC(C)C)NC(=O)[C@H](CCCCN)NC(=O)[C@H](CCCCN)NC(=O)[C@H](CCSC)NC(=O)[C@H](CCC(=O)O)NC(=O)[C@H](Cc1ccc(O)cc1)NC(=O)[C@H](CCC(=O)O)NC(=O)[C@H](CC(C)C)NC(=O)[C@H](CC(=O)O)NC(=O)[C@H](CC(C)C)NC(=O)[C@H](Cc1ccccc1)NC(=O)[C@@H](NC(=O)[C@@H](NC(=O)[C@H](CC(N)=O)NC(=O)[C@@H](NC(=O)[C@H](CCC(N)=O)NC(=O)[C@H](CC(=O)O)NC(=O)[C@H](CC(C)C)NC(=O)[C@@H](N)CO)[C@@H](C)CC)C(C)C)[C@@H](C)O)C(=O)N[C@@H](CCCCN)C(=O)N[C@@H](CCCCN)C(=O)N[C@@H](CC(C)C)C(=O)N[C@@H](CCC(=O)O)C(=O)N[C@@H](CCC(=O)O)C(=O)N[C@@H](CO)C(=O)N[C@@H](Cc1ccc(O)cc1)C(=O)N[C@H](C(=O)N[C@@H](CC(=O)O)C(=O)N[C@@H](CC(C)C)C(=O)N[C@@H](CCCCN)C(=O)N[C@@H](CCC(=O)O)C(=O)N[C@@H](CC(C)C)C(=O)O)[C@@H](C)CC` gave an IC50 of 0.508 µM (HCoV-OC43; viral infection, inhibitor, immunostaining; HCT-8; 2 days).
With `CN1CC[C@]23c4c5ccc(O)c4O[C@H]2c2ncc(-c4ccc(Cl)cc4)cc2C[C@@]3(OCCCc2ccccc2)[C@H]1C5` the AUC increase was 152% (CD-1 mouse, chemotherapy-induced neuropathy; sc, 10 mg/kg, day 1; relative to: morphine 10 mg/kg).
`O=C(O)c1ccc(-c2cccc(C(=O)O)c2)cc1`: “MIC of ampicillin” 512 mg/L (Escherichia coli; bacterial growth, broth microdilution; expressing OXA-48; 16 µg/mL, added: ampicillin; MIC of ampicillin).
With `CO[C@H]1[C@H](O[C@H]([C@H]2O[C@@H](n3ccc(=O)[nH]c3=O)[C@H](O)[C@@H]2O)[C@H](NCCCNC(=O)[C@@H](NC(=O)[C@@H](NC(=O)N[C@H](C(=O)O)C(C)C)[C@@H]2CCNC(=N)N2)[C@@H](OC(=O)CCCCCCCCCCCCN(O)C(=N)N)C(C)C)C(N)=O)O[C@H](CN)[C@H]1O` the MIC50 was > 35 mg/L (Saccharomyces cerevisiae; alamar blue; BY4742).
`NC[C@@H](NC[C@@H]1CCCN1C[C@@H](CO)NC[C@@H](NCCc1ccc(Cl)c(Cl)c1)c1ccccc1)c1ccccc1` has an IC50 of 12 µM and 11.8 µM (Acinetobacter baumannii; bacterial growth; compound alone).
`O=S(=O)(O)c1ccc(-c2ccc(S(=O)(=O)O)cc2)cc1` — result for “MIC of ampicillin”: 512 mg/L (Escherichia coli; bacterial growth, broth microdilution; expressing OXA-48; 8 µg/mL, added: ampicillin; MIC of ampicillin).
Under “potentiation of amikacin”, `CC(CCN[C@H](CN[C@H](CO)CN1CCC[C@H]1CN[C@H](CN)c1ccccc1)c1ccccc1)c1ccccc1` (stereo partly shown) is recorded as 3.7 fold (Acinetobacter baumannii; bacterial growth; 24 µM, fold shift of IC90, added: amikacin).
Under “rectal temperature change”, `Cc1c(C(=O)NN2CCCCC2)nn(-c2ccc(Cl)cc2Cl)c1-c1ccc(CCCCCBr)cc1` is recorded as “inactive” (mice; i.v., 10 mg/kg).
With `C=CC(=O)Nc1cc(-n2c(=O)ccc3cnc4ccc(-c5cn[nH]c5)cc4c32)ccc1C` the GI50 was > 10 µM (HeLa; cell growth; 72 h).
`CC(C)C[C@@H]1NC(=O)[C@H](CCC(=O)O)NC(=O)[C@@H]2CSSC[C@@H]3NC(=O)[C@H](C)NC(=O)[C@@H]4CCCN4C(=O)[C@H](CC(N)=O)NC(=O)[C@H](CSSC[C@H](NC(=O)[C@H](Cc4ccc(O)cc4)NC(=O)[C@H](CC(N)=O)NC(=O)[C@H](CO)NC(=O)[C@H](CO)NC(=O)CN4CCCN(CC(=O)O)CCN(CC(=O)O)CCCN(CC(=O)O)CC4)C(=O)N2)NC(=O)[C@H](CSSC[C@@H](C(=O)N[C@@H](Cc2ccccc2)C(=O)O)NC(=O)CNC(=O)[C@H]([C@@H](C)O)NC3=O)NC1=O` [copper-64 labelled]: 64Cu efflux “no effect” (T84; 1 h loading, pH 5.5, 37 °C).
The MIC50 of `Cc1cc(=O)oc2cc(OCCCCn3cc(COc4ccc(N5C(N)=NC(N)=NC56CCCCC6)cc4)nn3)ccc12` is reported as 3.2 µM (Mycobacterium bovis; BCG Tac^r7.2, thyA W133S missense; TA-C-resistant thyA mutant).
`COCCCn1nc(-c2ccc(CC(=O)Nc3cccc(F)c3)cc2)c2c(N)ncnc21` has an EC50 of 4.38 ± 0.3 µM (KM12; cell viability).

Some of these lines once more:
`NC[C@@H](NC[C@@H]1CCCN1C[C@@H](CO)NC[C@@H](NCCC12CC3CC(CC(C3)C1)C2)c1ccccc1)c1ccccc1` has an IC90 of 23.1 µM (Acinetobacter baumannii; bacterial growth; compound alone).
Under “rectal temperature change”, `Cc1c(C(=O)NN2CCCCC2)nn(-c2ccc(Cl)cc2Cl)c1-c1ccc(CCCCCBr)cc1` is recorded as “inactive” (mice; i.v., 10 mg/kg).
Under head-twitch response, `CNC(C)C(=O)c1cccc(Br)c1` (racemic) is recorded as “no effect” (DOI-induced; FVB mouse; subcutaneous, 10 mg/kg, added: DOI 1 mg/kg; relative to: vehicle plus DOI).
With `C=CC(=O)Nc1cc(-n2c(=O)ccc3cnc4ccc(-c5cn[nH]c5)cc4c32)ccc1C` the GI50 was > 10 µM (HeLa; cell growth; 72 h).
